Measurements from different studies.
Numbered parts are unrelated; each lists some results of a single study.

Block 1
Target: Fragile X messenger ribonucleoprotein 1, C-terminal low-complexity region (Fmr1, Mus musculus, UniProt P35922)
Technique: RNA Bind-n-Seq
Molecule type: RNA
Medium: in vitro
Tested at: 200 nM
Notes: whole 134-nt RNA, ends assumed
Added: 150 mM LiCl
Reference: input library
Direction: higher = stronger binding
Endpoint: log2 enrichment
Library: 7-deaza-guanosine replaces G
Constant ends, left off below: GGGAGUUCUACAGUCCGACGAUC … UGGAAUUCUCGGGUGUCAAGG
Strand = CAAGUCCUGUGCUACACAUCGUAUGUACCGAAUCGGUUUGGUUUGGAAAAAAAGGAAAGUAUUAUGUUACGCCGUUCGGAUCUGCACUUC; result = -1.44
Strand = GCAGGAAGUAAAAACAAAUGGAAAUGCUUCGGAUAGUGGCAGGGGUGGGGGUUGCUAAGGAAAGGGUGGGAUGGGAGUGGGUAAAAAAUU; result = 1.42
Strand = UCAAGUCCUGUGCUACACAUCGUAUGUACCGAAUCGGAAAGGUUUGGUUUUUGGAAAGUAUUAUGUUACGCCGUUCGGAUCUGCACUUCC; result = -0.976
Strand = CACAGACAACACGCACCCACACAGACACAGAGGGAAGGGGUUGGGAGGGGGACAGGGUGCACAGCAGGGCGGGGUAGGACCCCAGCCCCU; result = 1.05
Strand = GCAGGAAGUAAAAACAAAUGGAAAUGCUUCGGAUAGUGGCAGGGGUGGGGGUUGCUAAGGAAAAGGUGGGAUGGGAGUGGGUAAAGAGUU; result = 1.35
Strand = CAAGUCCUGUGCUACACAUCGUAUGUACCGAAUCGGGUUUGGGUGGGUUUUUGGGAAAGUAUUAUGUUACGCCGUUCGGAUCUGCACUUC; result = -0.238
Strand = UCAAGUCCUGUGCUACACAUCGUAUGUACCGAAUCGGAAAGGAAAAAGGUUUGGAAAGUAUUAUGUUACGCCGUUCGGAUCUGCACUUCC; result = -2.01
Strand = GUCCUGUGCUACACAUCGUAUGUACCGAAUCGGGGUGGGGUUUUUGGGGUUUUUGGGGAAAGUAUUAUGUUACGCCGUUCGGAUCUGCAC; result = 0.347
Strand = AGUCCUGUGCUACACAUCGUAUGUACCGAAUCGGAAAAAAAGGAAAGGAAAAAAAGGAAAGUAUUAUGUUACGCCGUUCGGAUCUGCACU; result = -1.65
Strand = ACCAUGCAGGUGGGCAUCUGUGGGAAGUGGGGCAAGGGGGGGAUAGGGAGGGGGGUAACACUUUGGGAACAGGUGGUCCCAGGUCGUUUC; result = 1.31
Strand = ACCAUGCAGGUGGGCAUCUUUGGGAAGUGGGGCAAGGGGGGGAUAGGGAGGGGGGUAACACUUUGGGAACAGGUGGACCCAGGUCGUUUC; result = 1.54

Block 2
Organism: Saccharomyces cerevisiae
Read-out: binding
Technique: competitive growth deep sequencing
Molecule type: peptide
Strain: cyclin D2-Cln2 fusion strain
Tested at: concentration not given
Notes: peptide tiling library
Direction: direction not given
Endpoint: growth enrichment score
Sequence = VLPGGVPSPGASLTSM; result = 0.428
Sequence = TSPGPVLLHPSPSTTQ; result = 0.918
Sequence = NFETPEAETPIRSPFK; result = -0.588
Sequence = SGYLTDENEVGFRG; result = 0.391
Sequence = KDDDKAWEYEERDRRS; result = 0.559
Sequence = QNPCGSKACRRLFGPV; result = -0.854
Sequence = VLVRTSACRSLFGPVD; result = -0.569
Sequence = VRDLSYRLVFLACCVA; result = -1.56
Sequence = DGCSPIKNWSPMRL; result = 0.707
Sequence = PQWPCGKHKRVLIFAS; result = -1.51
Sequence = TRRRLFVENDSP; result = -0.832
Sequence = AEHPKPSACRNLFGPV; result = -0.149
Sequence = RNRGPKLNAMLRLGVL; result = -2.87

Block 3
Target: Prothrombin, mature alpha-thrombin (F2, Homo sapiens, UniProt P00734)
Technique: aptamer microarray, sandwich
Molecule type: DNA with 2'F-ANA
Medium: in vitro
Tested at: 200 nM
Notes: whole 15-mer aptamer, many near background
Added: Cy3 exosite-II aptamer, 400 nM
Direction: higher = stronger binding
Endpoint: mean fluorescence intensity
Strand: GGTTGGTGTGGTTGG
Modification = 2'F-ANA at 1 2 4 9; result = 137 a.u.
Modification = 2'F-ANA at 1 2 3 5 7 8 10 13 15; result = 67.8 a.u.
Modification = 2'F-ANA at 2 6 7 12 14; result = 171 a.u.
Modification = 2'F-ANA at 1 2 3 4 9 10 11 12 14 15; result = 115 a.u.
Modification = 2'F-ANA at 1 2 3 4 5 6 8 9 10 13 14 15; result = 65.7 a.u.
Modification = 2'F-ANA at 1 5 8 9 10 11 13; result = 48.6 a.u.
Modification = 2'F-ANA at 2 3 6 11 13; result = 526 a.u.
Modification = 2'F-ANA at 3 4 6 12 13 14; result = 382 a.u.
Modification = 2'F-ANA at 1 2 3 4 6 8 9 10 12 14; result = 52.4 a.u.
Modification = 2'F-ANA at 6 8 11 14; result = 176 a.u.
Modification = 2'F-ANA at 1 2 3 4 6 7 9 11 15; result = 115 a.u.
Modification = 2'F-ANA at 2 3 4 6 8 11 13 14; result = 246 a.u.
Modification = 2'F-ANA at 1 2 5 6 7 8 11 12 13 14 15; result = 47.2 a.u.
Modification = 2'F-ANA at 1 3 9 11 12; result = 458 a.u.
Modification = 2'F-ANA at 4 5 6 8 11 12 13 14; result = 43.7 a.u.
Modification = 2'F-ANA at 4 5 6 9 10 11 12 13 14 15; result = 55.8 a.u.
Modification = 2'F-ANA at 4 5 7 10; result = 43.7 a.u.
Modification = 2'F-ANA at 3 6 8 9 11 13 14; result = 465 a.u.
Modification = 2'F-ANA at 1 3 4 7 9 10 11; result = 61.7 a.u.
Modification = 2'F-ANA at 4 5 8 9 10 11 12 14 15; result = 56.5 a.u.
Modification = 2'F-ANA at 2 5 8 9 12 14 15; result = 46.1 a.u.
Modification = 2'F-ANA at 2 4 7 8 14; result = 171 a.u.
Modification = 2'F-ANA at 3 6 7 8 10 12 13 14; result = 474 a.u.

Single results of other studies
Molecule = PhoQ, residues 284 288 289 292 302 303 SIHLQL; target = PhoP, residues 12 14 15 18 19 SMASL (Escherichia coli, UniProt P23836); assay = Sort-seq, measured: YFP reporter; system = E. coli; conditions = PhoQ-PhoP variant library, added: 10 µM Mg2+; scale = reference: high Mg2+ state, higher = stronger signaling; endpoint = fold induction; result = 15.3

Repeated from above (block 3):
Modification = 2'F-ANA at 3 4 6 12 13 14; result = 382 a.u.
Modification = 2'F-ANA at 1 2 5 6 7 8 11 12 13 14 15; result = 47.2 a.u.
Modification = 2'F-ANA at 1 3 4 7 9 10 11; result = 61.7 a.u.
Modification = 2'F-ANA at 2 3 4 6 8 11 13 14; result = 246 a.u.
Modification = 2'F-ANA at 3 6 8 9 11 13 14; result = 465 a.u.
Modification = 2'F-ANA at 4 5 8 9 10 11 12 14 15; result = 56.5 a.u.
